{"data": "Results from different studies", "note": "Every numbered part comes from another study and shows a few of its results, in no order. Substitutions count along the parent as printed."}
{"data": "Set 1", "target": "Interferon regulatory factor 7, full length, phosphomimetic (IRF7, Homo sapiens, UniProt Q92985, residues 1-503, S471D/S472D/S475D/S476D/S477D/S483D/S484D/S487D)", "technique": "protein-binding microarray", "molecule type": "double-stranded DNA, one strand shown", "sample": "in vitro", "tested at": "2200 nM top", "notes": "60-bp whole probe", "with": "salmon DNA 0.4 mg/ml", "reference": "random background probes", "reading": "higher = stronger binding", "shared flanks, not repeated": "GCCTAGCAC … GTCTTGATTCGCTTGACGCTGCTG", "Target sequence (chain)": "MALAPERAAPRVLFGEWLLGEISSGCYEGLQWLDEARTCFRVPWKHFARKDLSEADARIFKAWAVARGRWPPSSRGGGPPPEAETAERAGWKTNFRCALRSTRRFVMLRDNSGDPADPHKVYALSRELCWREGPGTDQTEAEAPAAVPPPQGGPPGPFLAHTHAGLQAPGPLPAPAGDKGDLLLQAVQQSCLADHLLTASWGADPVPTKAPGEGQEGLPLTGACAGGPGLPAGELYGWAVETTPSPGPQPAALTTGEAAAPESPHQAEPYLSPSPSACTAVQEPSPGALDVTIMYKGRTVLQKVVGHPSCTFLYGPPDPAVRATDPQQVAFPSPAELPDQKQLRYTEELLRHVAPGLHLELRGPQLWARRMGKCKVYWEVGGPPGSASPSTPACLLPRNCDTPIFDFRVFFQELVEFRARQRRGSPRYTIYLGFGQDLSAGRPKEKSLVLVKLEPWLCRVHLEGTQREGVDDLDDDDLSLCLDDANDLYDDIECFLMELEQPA"}
{"Oligonucleotide": "GACGGTTTCGACTATCGGTACGTGCTA", "fitted relative affinity [z-score]": 3.7}
{"Oligonucleotide": "TTAGGTATCGACACTGGGTTAGTGCTA", "fitted relative affinity [z-score]": -0.0713}
{"Oligonucleotide": "GACGATCTCACTCTCGAGACGTGCTAG", "fitted relative affinity [z-score]": 0.703}
{"Oligonucleotide": "GACGGTTCCGGTGTCGGGACGTGCTAG", "fitted relative affinity [z-score]": 0.264}
{"Oligonucleotide": "TTAGATCTCAGTTCCGATTAGTGCTAG", "fitted relative affinity [z-score]": 0.903}
{"Oligonucleotide": "GACGGTATCGGACTTGGGACGTGCTAG", "fitted relative affinity [z-score]": -0.305}
{"Oligonucleotide": "TCACCTCTAGGAATGTAACTGTGCTAG", "fitted relative affinity [z-score]": 0.633}
{"Oligonucleotide": "TTAGGTTCCCCTTTCCTTTAGTGCTAG", "fitted relative affinity [z-score]": 2.73}
{"Oligonucleotide": "TTAGATATCAGTCTCTATTAGTGCTAG", "fitted relative affinity [z-score]": 0.2}
{"Oligonucleotide": "TTAGGTTACGGTTTCGGTTAGTGCTAG", "fitted relative affinity [z-score]": 6.7}
{"Oligonucleotide": "TCTCCTCTAGGTTCTCTGAGAGTGCTA", "fitted relative affinity [z-score]": 0.935}
{"Oligonucleotide": "TCTGATTTTGCTTTCATTTAGTGCTAG", "fitted relative affinity [z-score]": 3.57}
{"Oligonucleotide": "TTAGGTTTCGTTTTCCTTTAGTGCTAG", "fitted relative affinity [z-score]": 13.1}
{"Oligonucleotide": "TGCCCTCTCCATACTTCCCAGTGCTAG", "fitted relative affinity [z-score]": 1.76}
{"Oligonucleotide": "GACGGTTTCCTTATTCTGACGTGCTAG", "fitted relative affinity [z-score]": 2.43}
{"Oligonucleotide": "TTAGATTCCAGCTTCGATTAGTGCTAG", "fitted relative affinity [z-score]": 0.901}
{"Oligonucleotide": "GACGACTTCGGGTTTCGAGACGTGCTA", "fitted relative affinity [z-score]": 1.41}
{"Oligonucleotide": "TTAGGTTCCGGTTTGGGTTAGTGCTAG", "fitted relative affinity [z-score]": 4.27}
{"Oligonucleotide": "TCAGGTCTCGGACTGGGTTAGTGCTAG", "fitted relative affinity [z-score]": -0.0165}
{"data": "Set 2", "target": "CCNE1, cyclin fold, Cln2 fusion (human)", "technique": "yeast growth competition, sequencing", "sample": "yeast", "notes": "weak parent motif", "reference": "not given", "reading": "higher = stronger binding", "starting sequence": "CDC6 docking peptide (human); TLKGRRLVFDNQL"}
{"Change": "N11G", "normalised enrichment score": 0.95}
{"Change": "L7Y", "normalised enrichment score": 0.592}
{"Change": "D10F", "normalised enrichment score": 0.453}
{"Change": "K3R", "normalised enrichment score": 0.638}
{"Change": "L2N", "normalised enrichment score": -0.3}
{"Change": "N11S", "normalised enrichment score": 0.319}
{"Change": "T1F", "normalised enrichment score": -0.773}
{"Change": "L13T", "normalised enrichment score": -0.0999}
{"Change": "L7V", "normalised enrichment score": 0.21}
{"Change": "F9N", "normalised enrichment score": -0.167}
{"Change": "G4W", "normalised enrichment score": 0.0655}
{"Change": "V8A", "normalised enrichment score": -0.241}
{"Change": "K3T", "normalised enrichment score": 0.904}
{"Change": "D10K", "normalised enrichment score": 0.0409}
{"Change": "L7R", "normalised enrichment score": 1.05}
{"Change": "V8N", "normalised enrichment score": 1.37}
{"data": "Set 3", "target": "Prothrombin, mature alpha-thrombin (F2, Homo sapiens, UniProt P00734)", "technique": "aptamer microarray, sandwich", "molecule type": "DNA with 2'F-ANA", "sample": "in vitro", "tested at": "200 nM", "notes": "whole 15-mer aptamer, many near background", "with": "Cy3 exosite-II aptamer, 400 nM", "reading": "higher = stronger binding", "oligonucleotide": "GGTTGGTGTGGTTGG"}
{"Modification": "2'F-ANA at 1 7 8 9 11 13", "mean fluorescence intensity": "163 a.u."}
{"Modification": "2'F-ANA at 1 5 7 9 10 15", "mean fluorescence intensity": "40.9 a.u."}
{"Modification": "2'F-ANA at 1 3 4 6 11 12 14", "mean fluorescence intensity": "72.5 a.u."}
{"Modification": "2'F-ANA at 2 3 7 8 13", "mean fluorescence intensity": "880 a.u."}
{"Modification": "2'F-ANA at 1 2 3 6 7 8 12", "mean fluorescence intensity": "492 a.u."}
{"Modification": "2'F-ANA at 1 3 4 5 6 7 8 11 12 14", "mean fluorescence intensity": "85.3 a.u."}
{"Modification": "2'F-ANA at 1 3 4 5 8 9 10 11 13 15", "mean fluorescence intensity": "46.2 a.u."}
{"Modification": "2'F-ANA at 2 4 10 14", "mean fluorescence intensity": "76.1 a.u."}
{"Modification": "2'F-ANA at 3 5 6 9 11 13 14", "mean fluorescence intensity": "53.9 a.u."}
{"Modification": "2'F-ANA at 1 3 6 7 8 9 11", "mean fluorescence intensity": "258 a.u."}
{"Modification": "2'F-ANA at 1 2 3 5 6 7 9 10 12 14", "mean fluorescence intensity": "48.1 a.u."}
{"Modification": "2'F-ANA at 1 2 3 4 5 6 9 11 12 15", "mean fluorescence intensity": "82.7 a.u."}
{"Modification": "2'F-ANA at 1 3 5 7 9 11 12 13 14 15", "mean fluorescence intensity": "46.7 a.u."}
{"Modification": "2'F-ANA at 2 3 4 5 7 9 10 13 14 15", "mean fluorescence intensity": "53.4 a.u."}
{"Modification": "2'F-ANA at 1 2 5 6 8 12 15", "mean fluorescence intensity": "126 a.u."}
{"Modification": "2'F-ANA at 1 3 11 12 13 14 15", "mean fluorescence intensity": "116 a.u."}
{"Modification": "2'F-ANA at 1 4 7 8 11 14", "mean fluorescence intensity": "59.2 a.u."}
{"Modification": "2'F-ANA at 1 3 7 10 11 12 13 14", "mean fluorescence intensity": "61.4 a.u."}
{"Modification": "2'F-ANA at 1 2 3 7 8 9 11 12 14 15", "mean fluorescence intensity": "93.9 a.u."}
{"Modification": "2'F-ANA at 1 5 8 11 13 14", "mean fluorescence intensity": "52.1 a.u."}
{"Modification": "2'F-ANA at 1 5 7 8 13", "mean fluorescence intensity": "48.5 a.u."}
{"Modification": "2'F-ANA at 1 6 7 11 13", "mean fluorescence intensity": "131 a.u."}
{"Modification": "2'F-ANA at 3 4 8 9 11 12 13 15", "mean fluorescence intensity": "663 a.u."}
{"Modification": "2'F-ANA at 1 2 3 4 5 7 9 13", "mean fluorescence intensity": "50.9 a.u."}
{"Modification": "2'F-ANA at 2 4 10 13", "mean fluorescence intensity": "76.1 a.u."}
{"data": "Set 4", "Molecule": "PhoQ, residues 284 288 289 292 302 303 SSCCRF", "technique": "Sort-seq", "item": "YFP reporter", "sample": "E. coli", "notes": "PhoQ-PhoP variant library", "with": "10 µM Mg2+", "reference": "high Mg2+ state", "reading": "higher = stronger signaling"}
{"target": "PhoP, residues 12 14 15 18 19 TQCLL (Escherichia coli, UniProt P23836)", "fold induction": 4.79}
{"target": "PhoP, residues 12 14 15 18 19 VHTVL (Escherichia coli, UniProt P23836)", "fold induction": 5.09}
{"target": "PhoP, residues 12 14 15 18 19 ICWRQ (Escherichia coli, UniProt P23836)", "fold induction": 4.85}
{"note": "A few entries again (set 2):"}
{"Change": "L2N", "normalised enrichment score": -0.3}
{"Change": "N11S", "normalised enrichment score": 0.319}
{"Change": "T1F", "normalised enrichment score": -0.773}
{"Change": "L13T", "normalised enrichment score": -0.0999}
{"Change": "L7V", "normalised enrichment score": 0.21}
{"Change": "F9N", "normalised enrichment score": -0.167}
{"Change": "G4W", "normalised enrichment score": 0.0655}
{"Change": "V8A", "normalised enrichment score": -0.241}
